Measured values of several laboratories.
Each numbered part is a random draw from the data of one study; scales do not carry over between parts.

Set 1
Target: Interferon regulatory factor 5, full length, phosphomimetic (IRF5, Homo sapiens, UniProt Q13568-2, residues 1-514, S451D/S453D/S456D/S462D)
Technique: protein-binding microarray
Molecule type: double-stranded DNA, one strand shown
Medium: in vitro
Tested at: 940 nM top
Notes: 60-bp whole probe
Together with: salmon DNA 0.4 mg/ml
Relative to: random background probes
Direction: higher = stronger binding
Constant ends, left off below: GCCTAGCAC … GTCTTGATTCGCTTGACGCTGCTG
`TTAGAACTGCTTCTCCTTTAGTGCTAG` — result for “fitted relative affinity”: -0.237 z-score.
Under “fitted relative affinity”, `GACGGTATCGGGTATAGGGACGTGCTA` is recorded as 4.81 z-score.
`GCGGTTGGATCACAAGGTCAGTGCTAG`: “fitted relative affinity” -0.723 z-score.
Under “fitted relative affinity”, `TTCGGTATCGGTCTCGGTTAGTGCTAG` is recorded as 10.4 z-score.
`GACGGTTTTGGTTTCGGGACGTGCTAG`: “fitted relative affinity” 8.53 z-score.
Under “fitted relative affinity”, `TTAGATTTCGCGTATCGATTAGTGCTA` is recorded as 1.44 z-score.
For `TCAACTCTAATCTCACTCACTGTGCTA`, “fitted relative affinity” read 1.21 z-score.
`TTAGGACTGCTTTTGCTTTAGTGCTAG` — result for “fitted relative affinity”: -0.238 z-score.
Under “fitted relative affinity”, `TTGGGACTGGGGTTTCGGTTAGTGCTA` is recorded as 5.29 z-score.
For `CGGCTACCGCGGCTCCTACAGTGCTAG`, “fitted relative affinity” read -0.398 z-score.
`GACGGTATCCTTCTCGTGACGTGCTAG` — result for “fitted relative affinity”: 0.414 z-score.
For `GACGATATCACTCTCGAGACGTGCTAG`, “fitted relative affinity” read 1.5 z-score.
Under “fitted relative affinity”, `TTAGAGCTGAGTTTCGATTAGTGCTAG` is recorded as 7.27 z-score.
`TCAAAGTTCATGTTCAAACTGTGCTAG`: “fitted relative affinity” -0.376 z-score.
`GACGATTGCGGGACTGGAGACGTGCTA`: “fitted relative affinity” -0.659 z-score.
`TCATGTCTGCCTTTCAAACTGTGCTAG`: “fitted relative affinity” 0.484 z-score.
`GACGGTTTCGCTTCCGGGACGTGCTAG` — result for “fitted relative affinity”: 7.78 z-score.
`TCAAGTTTTCCTCTGTCACTGTGCTAG`: “fitted relative affinity” 1.14 z-score.
Under “fitted relative affinity”, `TTAGATTTCGGGAATGGATTAGTGCTA` is recorded as 0.725 z-score.
Under “fitted relative affinity”, `TGGGTAATGCTTCTGTATTCGTGCTAG` is recorded as -0.125 z-score.
`GACGATCTGAGTATCGAGACGTGCTAG`: “fitted relative affinity” 1.54 z-score.
For `TTAGGTATCGACATTGGGTTAGTGCTA`, “fitted relative affinity” read 4.66 z-score.
`TTAGGTTTGGGTATCGGTTAGTGCTAG`: “fitted relative affinity” 4.3 z-score.

Set 2
Target: Histone acetyltransferase KAT6A, winged helix 1, GST fusion (KAT6A, Homo sapiens, UniProt Q92794, residues 1-85)
Technique: protein binding microarray
Molecule type: double-stranded DNA, one strand shown
Medium: in vitro
Tested at: not given
Notes: 8-mer, flanks averaged, mean of 2 arrays, mostly near background
Relative to: not given
Direction: higher = stronger binding
Residues (chain): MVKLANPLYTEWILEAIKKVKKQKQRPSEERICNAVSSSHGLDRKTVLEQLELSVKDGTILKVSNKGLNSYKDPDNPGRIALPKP
The E-score of `GGCCTGAA` is reported as 0.0994.
With `ATTGAACA` the E-score was -0.106.
`CCAGCCAA` gave an E-score of -0.194.
For `CCTCTGAG`, the E-score was -0.145.
`CCTAGATA` gave an E-score of -0.187.
`CACCTAGC` has an E-score of -0.0293.
The E-score of `ATCTGATC` is reported as -0.0441.
With `CTATTAGC` the E-score was -0.0242.
`AAAGGCCA` gave an E-score of -0.0837.
With `ACTGAGAT` the E-score was -0.127.
For `CTAATCGA`, the E-score was -0.0941.
The E-score of `GAGGCGGC` is reported as 0.348.
For `AACACCTG`, the E-score was -0.193.
The E-score of `ACCGTAGC` is reported as 0.275.
`ACTCCCTC` has an E-score of -0.0442.
`GTGTCTTA` gave an E-score of -0.219.
`GAAATCCA` has an E-score of -0.22.
`AAGCCATG` gave an E-score of -0.179.
`GGTTCACA` gave an E-score of 0.0361.
`CCTCGTGA` has an E-score of -0.173.
`CTGGGACA` has an E-score of -0.105.
With `CAACCGTG` the E-score was 0.143.
`GCATGGAC` gave an E-score of 0.00411.
`AGGGGATA` gave an E-score of -0.177.
For `CGCCCTAG`, the E-score was 0.18.

Set 3
Target: Ras GTPase-activating protein-binding protein 1, full length (G3BP1, Homo sapiens, UniProt Q13283)
Chain of UniProt Q13283 (whole entry, looked up): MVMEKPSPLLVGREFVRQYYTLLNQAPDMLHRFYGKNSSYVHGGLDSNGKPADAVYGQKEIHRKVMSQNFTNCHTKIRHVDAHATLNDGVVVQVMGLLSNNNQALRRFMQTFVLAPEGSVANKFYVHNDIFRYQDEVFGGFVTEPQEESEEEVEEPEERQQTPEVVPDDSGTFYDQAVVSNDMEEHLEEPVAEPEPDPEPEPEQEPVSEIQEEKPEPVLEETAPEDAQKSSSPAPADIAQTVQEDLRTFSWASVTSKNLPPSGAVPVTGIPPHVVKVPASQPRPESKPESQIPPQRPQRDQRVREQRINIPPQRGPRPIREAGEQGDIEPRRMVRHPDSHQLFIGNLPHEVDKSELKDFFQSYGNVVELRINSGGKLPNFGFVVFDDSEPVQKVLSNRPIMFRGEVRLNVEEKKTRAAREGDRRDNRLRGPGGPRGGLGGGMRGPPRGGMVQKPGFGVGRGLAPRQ
Technique: RNA Bind-n-Seq
Molecule type: RNA
Medium: in vitro
Tested at: 200 nM
Notes: whole 134-nt RNA, ends assumed
Together with: 150 mM LiCl
Relative to: input library
Direction: higher = stronger binding
Each molecule: 7-deaza-guanosine replaces G
The log2 enrichment of `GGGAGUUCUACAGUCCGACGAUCAUUCUUCAUUGAGGGUGAGGAUCUCCCAAUGGGAGACUGCUCUGAAAAGAGCAUGUGCUUUUUGAAUUAGAUAACCUACUAUAAUCAUGGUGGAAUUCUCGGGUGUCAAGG` is reported as -1.4.
With `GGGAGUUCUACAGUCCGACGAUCAGUCCUGUGCUACACAUCGUAUGUACCGAAUCGGGUUUUUGGGAAAGGGAAAAAGGGAAAGUAUUAUGUUACGCCGUUCGGAUCUGCACUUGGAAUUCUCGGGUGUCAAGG` the log2 enrichment was -0.896.
For `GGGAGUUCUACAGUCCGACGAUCUUGGACUAUGGAUCAGGUACUGUGCUCAGCAUCAGAAAAUGGGAUGACAAUGAACAGAGUAACAGGACUAUAUUUCUGAAAAAGGAUGAAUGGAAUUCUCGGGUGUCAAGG`, the log2 enrichment was -0.893.
For `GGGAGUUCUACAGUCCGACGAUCCCUGUGCUACACAUCGUAUGUACCGAAUCGGUUUUUUUGGUUUUUUUGGGUUUUUUUGGGGAAAGUAUUAUGUUACGCCGUUCGGAUCUGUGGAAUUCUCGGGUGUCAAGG`, the log2 enrichment was -0.685.
The log2 enrichment of `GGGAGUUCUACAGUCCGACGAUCAAGUCCUGUGCUACACAUCGUAUGUACCGAAUCGGGCCCGGGGCCCGGGCCCGGGGAAAGUAUUAUGUUACGCCGUUCGGAUCUGCACUUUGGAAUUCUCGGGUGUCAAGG` is reported as -2.15.
With `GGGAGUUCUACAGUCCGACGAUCUCCUCAAGUCCUGUGCUACACAUCGUAUGUACCGAAUCGGAGGAGGAAAGGAAAGUAUUAUGUUACGCCGUUCGGAUCUGCACUUCCAGCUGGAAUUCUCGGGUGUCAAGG` the log2 enrichment was -1.17.
The log2 enrichment of `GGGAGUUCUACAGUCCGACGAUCACCAUGCAGGUGGGCAUCUUUGGGAAGUGGGGCAAGGGGGGGAUAGGGAGGGGGGUAACAGUUUGGGAACAGGUGGUCCCAGGUCGUUUCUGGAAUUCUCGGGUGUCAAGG` is reported as 0.126.
`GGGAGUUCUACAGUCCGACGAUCAGUCCUGUGCUACACAUCGUAUGUACCGAAUCGGGGUGGGGUUUGGGGAAAAAGGGGAAAGUAUUAUGUUACGCCGUUCGGAUCUGCACUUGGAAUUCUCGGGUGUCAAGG` has a log2 enrichment of -0.519.
With `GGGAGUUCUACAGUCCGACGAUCCAAGUCCUGUGCUACACAUCGUAUGUACCGAAUCGGGAAAGGGAAAGGGGAAAGGAAAGUAUUAUGUUACGCCGUUCGGAUCUGCACUUCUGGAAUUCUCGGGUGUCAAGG` the log2 enrichment was -0.647.
With `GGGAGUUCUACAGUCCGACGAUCACCAUGCAGGUGGGGAUCUUUGGGAAGUGGGGCAAGGGGGGGAUAGGGAGGGGGGUAACACUUUGGGAACAGGUGGUCCCAGGUCGUUUCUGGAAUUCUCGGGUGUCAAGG` the log2 enrichment was 0.38.
`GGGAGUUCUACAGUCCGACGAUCGCAGGAAGUAAAAACAAAUGGAACUGCUUCGGAUAGUGGCAGGGGUGGGGGUUGCUAAGGAAAGGGUGGGAUGGGAGUGGGUAAAGAGUUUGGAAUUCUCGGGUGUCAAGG` has a log2 enrichment of -0.0877.

Set 4
Target: RNA binding protein fox-1 homolog 2, RRM domain, GST-SBP tag (RBFOX2, Homo sapiens, UniProt O43251-10, residues 100-194)
Technique: RNA Bind-n-Seq
Molecule type: RNA
Medium: in vitro
Tested at: 365 nM
Notes: natural RNA segment, single round, ends assumed
Relative to: no-protein control
Direction: higher = stronger binding
Construct (chain): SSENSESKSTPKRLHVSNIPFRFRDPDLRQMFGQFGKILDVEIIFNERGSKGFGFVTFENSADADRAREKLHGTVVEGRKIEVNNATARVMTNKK
`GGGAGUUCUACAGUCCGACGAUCUAAUAGGAUGCAAGUCUAAGCGUUUCAUGUGGACAUAAAUGUAUCUAAAUAAAACUUCCCCUAGCACUGUGGCUGACCUCACCCUUACUUUUAUACUUUAGUAUGAAACUUGGAAUUCUCGGGUGCCAA` — result for “RBNS enrichment (R)”: 0.48.
`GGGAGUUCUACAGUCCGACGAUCAGCAUACAGGAUGGGGAGUCUGGUGUAUUCAGUGUUCACAGUCAGCAGACAUGGUGACCUGGUGGGAGACUUUAUUUAUCCAGUGUGGUGAUAGCAUGACCCUCCAUGCUUGGAAUUCUCGGGUGCCAA`: “RBNS enrichment (R)” 0.452.
`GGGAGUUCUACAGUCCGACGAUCGCCUUCUUUUCCCACGCCUCUAACUUAAUGUUUUAUAUUUGAAUUGUGUGGCUCAAGGGUCAUGUAUAGUUUGUGGAAUUUUUCCAAUUAAAUGUCUUGCUUACAGUGGUUGGAAUUCUCGGGUGCCAA`: “RBNS enrichment (R)” 0.999.
Under “RBNS enrichment (R)”, `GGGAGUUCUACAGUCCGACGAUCUUUGGUUCUCGAACCAUCUACCUGCUUUUCCUCUCUCUCCCAAGGCCUGACAAUGGUACCUAUUAGGGAUGAGAUACAGACAAGGAUAGCUAUCUGGGACAUUAUUGGCAUGGAAUUCUCGGGUGCCAA` is recorded as 0.62.
For `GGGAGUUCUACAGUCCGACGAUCUUAUUUAAUUCAUUAAUGAAAGAGAGUGCUCUCUUUAAUGCAGCUUUGGGUAGACAGUCUAAUUCAGUCCAAUUUUAAUCUGCAUUAAAAUAUGCAAUGCUAGACAAAGAUGGAAUUCUCGGGUGCCAA`, “RBNS enrichment (R)” read 0.316.
`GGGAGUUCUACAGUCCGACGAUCAAGGGAGAGGGGAACUACCCCCCCAGCCUGCCCUCCGCCCCGCCCCAGCCGGCGGACUGUGCUGUUUCCUCCGCCCCCACUCCCGUGUUUUCUGACCUCCUGCCUGAGUUUGGAAUUCUCGGGUGCCAA`: “RBNS enrichment (R)” 1.14.
For `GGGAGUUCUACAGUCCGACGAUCGCACAGUAAACGCAAGAGGGGAUUUGUGUACAAAAGGCAAAAAAAGUAUUUGAUAUCAUUGUACAUAAGAGUUUUCAGAGAUUUCAUAUAUAUCUUUUACAGAGGCUAUUUGGAAUUCUCGGGUGCCAA`, “RBNS enrichment (R)” read 0.898.
For `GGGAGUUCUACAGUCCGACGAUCACAGCUGCUCUCCUGCGCCCAGCUUCACAGGCAGCCCUGCCCCUUUCUCCUCACCAGCAUGGUACCUGCCCUUACUGCUAGAGCAGCUGCUUGUAGAGGGACAUUCCCUCUGGAAUUCUCGGGUGCCAA`, “RBNS enrichment (R)” read 0.797.
`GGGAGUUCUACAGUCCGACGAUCGGCAGGAGGUCCCACCAUGUGGACAGACAUAGCCCAAGGAGGCACCACAGGUCUAUGUGUGCUGGGGGAUGUCAGGUGCCACCCAACGCUGUCCUGGUGGUAUUUACAAUUGGAAUUCUCGGGUGCCAA` — result for “RBNS enrichment (R)”: 0.275.
For `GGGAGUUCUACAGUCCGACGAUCAAAGGUAGACAUUUUGGGAAUCAUAACUGUAUUACUAAACGUGUUUAAUCAAAAUUCAUAGUUGGAUCAGCCAUUGCCUUGUACAGGUUUAUUUUUUCCCCACAGACGCAUGGAAUUCUCGGGUGCCAA`, “RBNS enrichment (R)” read 1.94.
Under “RBNS enrichment (R)”, `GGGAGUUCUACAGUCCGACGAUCAAGAUUAAAAGUUCAUAUAUAGGCUAAAGAUGUAACUAGGCCAUUUGUAUUUGUAUUCCCUUUUAUUUCCAAAAUAAAAUGAAAAAUCUUUUUUUAAUAAUUUCAUCCCUUGGAAUUCUCGGGUGCCAA` is recorded as 0.881.
`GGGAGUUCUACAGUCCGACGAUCCCGGUCUCCAGGCUCCUCUGAGCUUGGGUCAGCUCCUAAUGGAGCAUGGCACCCCAGGGAACCAGAGGAACUCUGUGAAGAAAGGCAUGGAAAACCGGGGUGUCUCCCGCUGGAAUUCUCGGGUGCCAA` — result for “RBNS enrichment (R)”: 0.889.
